Results from different studies.
Each numbered part is a random draw from the data of one study; scales do not carry over between parts.

Study 1
Target: Histone acetyltransferase KAT6A, both winged helices, GST fusion (KAT6A, Homo sapiens, UniProt Q92794, residues 1-181)
Technique: protein binding microarray
Molecule type: double-stranded DNA, one strand shown
Sample: in vitro
Concentration: not given
Notes: 8-mer, flanks averaged, mean of 2 arrays, mostly near background
Reference: not given
Reading: higher = stronger binding
Construct (chain): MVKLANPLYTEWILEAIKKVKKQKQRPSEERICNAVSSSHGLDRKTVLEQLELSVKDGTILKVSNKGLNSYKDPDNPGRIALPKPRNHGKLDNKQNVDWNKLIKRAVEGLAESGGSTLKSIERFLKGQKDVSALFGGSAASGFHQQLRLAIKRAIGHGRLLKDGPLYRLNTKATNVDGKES
| Strand | E-score |
| --- | --- |
| AGAAACGG | 0.226 |
| CTGAAGAA | -0.0831 |
| CTTTTCTC | -0.2 |
| ACCCCATG | -0.232 |
| TACGGTGA | 0.131 |
| AGCGACGC | 0.296 |
| GCCATACA | -0.0596 |
| GTGATAGA | -0.0531 |
| CGACATAA | 0.0816 |
| AGGGATCC | 0.00991 |
| ACGCGGCT | 0.318 |
| CCGGGCCA | 0.176 |
| CCGAAACC | 0.0232 |
| ATTACCAG | -0.0882 |
| GGTCTCGA | -0.0429 |
| AGAGTATG | -0.112 |
| GAGGTGAC | -0.0794 |

Study 2
Target: Fragile X messenger ribonucleoprotein 1, C-terminal low-complexity region (Fmr1, Mus musculus, UniProt P35922)
Technique: RNA Bind-n-Seq
Molecule type: RNA
Sample: in vitro
Concentration: 200 nM
Notes: whole 134-nt RNA, ends assumed
Together with: 150 mM LiCl
Reference: input library
Reading: higher = stronger binding
All molecules: 7-deaza-guanosine replaces G
Shared flanks, not repeated: GGGAGUUCUACAGUCCGACGAUC … UGGAAUUCUCGGGUGUCAAGG
| Strand | log2 enrichment |
| --- | --- |
| CACAGACAACACGCACCCACACAGACACAGAGGGAAGGGGUUGGGAUGCGGACAGGGUGCACAGCAGGGCGGGGUAGGACCCCAGCCCCU | -1.55 |
| CAAGUCCUGUGCUACACAUCGUAUGUACCGAAUCGGGGAAAGGGGAGGGGAGGGGAAAGUAUUAUGUUACGCCGUUCGGAUCUGCACUUC | 0.543 |
| AAGUCCUGUGCUACACAUCGUAUGUACCGAAUCGGGAAAAAGGGUGGGUUUUUGGGAAAGUAUUAUGUUACGCCGUUCGGAUCUGCACUU | -2.11 |
| UGGCUUCCUUCUUUCUAUUCCCCGCCUGCCUUCCAUGGUAGAGGCCAGUGACUUUGAGAUUAAUGGACUGGACUUCAUGGUAAGACCCUC | 1.38 |
| CACAGACAACACGCACCCACACAAACACAGAGGGAAGGGGUUGGGAUGGGGACAGGGUGCACAGCAGGGCGGGGUAGGACCCCAGCCCCU | 0.01 |
| CUGUGCUACACAUCGUAUGUACCGAAUCGGGGAAAAAGGGGUUUUUUUGGGGAAAAAGGGGAAAGUAUUAUGUUACGCCGUUCGGAUCUG | -1.04 |
| GUCCUGUGCUACACAUCGUAUGUACCGAAUCGGGGAAAAAAAGGGGUUUGGGGUGGGGAAAGUAUUAUGUUACGCCGUUCGGAUCUGCAC | -1.01 |
| CCUCAAGUCCUGUGCUACACAUCGUAUGUACCGAAUCGGAGGUUUUUGGAGGAAAGUAUUAUGUUACGCCGUUCGGAUCUGCACUUCCAG | -0.542 |
| AAGUCCUGUGCUACACAUCGUAUGUACCGAAUCGGUUUUUUUGGAAAAAGGUUUGGAAAGUAUUAUGUUACGCCGUUCGGAUCUGCACUU | -3.74 |
| UUGUGAUAGCCAAGUGGGACUACACCGCCCAGCAGGACCAGGAGCUGGACAUCAAGAAGAACGAGCGGCUGUGGUUGCUGGACGACUCCA | -1.55 |
| CUGUGCUACACAUCGUAUGUACCGAAUCGGGUUUUUUUGGGAAAAAAAGGGAAAAAAAGGGAAAGUAUUAUGUUACGCCGUUCGGAUCUG | -1.94 |

Study 3
Target: RNA binding protein fox-1 homolog 2, RRM domain, GST-SBP tag (RBFOX2, Homo sapiens, UniProt O43251-10, residues 100-194)
Technique: RNA Bind-n-Seq
Molecule type: RNA
Sample: in vitro
Concentration: 365 nM
Notes: natural RNA segment, single round, ends assumed
Reference: no-protein control
Reading: higher = stronger binding
Shared flanks, not repeated: GGGAGUUCUACAGUCCGACGAUC … UGGAAUUCUCGGGUGCCAA
Target sequence (chain): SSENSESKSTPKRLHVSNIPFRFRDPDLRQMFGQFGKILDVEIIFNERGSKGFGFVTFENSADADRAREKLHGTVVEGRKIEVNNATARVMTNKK
| Strand | RBNS enrichment (R) |
| --- | --- |
| ACAAGGACUAAUCCUGGGUGUCUCUGAGACCCAUCUCCUGCCUAGACAUCCACCUCCAGAGCAACACUGGCCCCACAGUAAAAGAGGAAGUCUUGUACCUCAGGCAGGCC | 0.55 |
| AGUCUUAUGGAUACGAAGGGUACAUUUUUCAUAAUGAUUCCUUUAUAUUUUCACUUUGUGUCAUUGCAGAAUUUUAGACUCUCAUUCACAAUGAAAAGUUUAUUUUAAAC | 0.472 |
| GUCAGCCAGGGGCCAGUCAGCCCAGCAGUCUCCCCUGCUCCCUGACAUGAGUUCCUAAAGGGCACUGAAAAGGGCACCUCCUUCCUGUGUCUGCCUCCACUGCACCCCCA | 0.67 |
| AACAAGUCCCGCAAACCGGGGACGGAAGGACAUUUGACUUUUAUUUUUGUAUUUAAUUGACAUGAAUGUAAAGGGGACAGCUCAGGGUUGUUUUGGAGCCUGUUGACUUU | 0.798 |
| CAGGGUAGAGAAUUUGCAGGCGGUGCAGACAGACUUUAGCUCCGAUCCACUGCAGAAAGUUGUGUGCUUCAACCACGAUAAUACCCUGCUUGCCACUGGAGGAACAGAUG | 0.586 |
| AGCAUGGGCCCCAUUGCUUGGGCGGCUGCUGUAUUUUCAUUUACUCUGGCCCUUGGACUAUGGAAACGUGGGAGGGGCAGGGGAGAUGUGGGGAAGUCCAGGACUCCAGG | 0.883 |
| UAAUACAUUGUAAAAAGUAUUAAAUCCUUUGAAACAUCUUUUGUUGCUUAUUUAGUUUUUGUUUCUACAGGUCAAACAUGAUUGCUUUCUAUAAAAGAAAUGCUUGAGAG | 0.908 |
| CUCCAGCCAUCAAGAGACUGAGUCAAGUUGUUCCUUAAGUCAGAACAGCAGACUCAGCUCUGACAUUCUGAUUCGAAUGACACUGUUCAGGAAUCGGAAUCCUGUCGAUU | 0.297 |
| UUUAAAUUACUGGAUUCUAAGGAAUUUCUUAUCUGACAGAGCAUCAGAACCAGAGGCUUGGUCCCACAGGCCACGGACCAAUGGCCUGCAGCCGUGACAACACUCCUGUC | 0.262 |
| GGGCCAGGCCCAAGGUCCCCUUGCUGUGUGCAGCCCAGGGACUUGGUACCAUGCAUCCCAGCUGCUCUAGUCAUGGCUAAAAGGGGCCAAGAUACAGCUCAGGCCUUGGC | 0.376 |
| GUUAACUCCUAACACAUAUUCUCUUAUGUCUCAGUAAAGUUUCAUUUGAUAAGUUGUUGAGAUUCUGUUAUUUGAUAAUAUUCUUCGGCUGUCCAUCCAGCAUCUUAAUC | 0.68 |
| AAUAAAAAAUAAAAUGCAAGUGAAAACAGGGGGGGAAUUGGAUUAUUUCCUGCACUGGGUUGUGCGUGUGUGUGUGUGUGCGCGUGUAUGUGCGUGUGUGUGCGCGUGUG | 1.97 |

Study 4
Target: Interferon regulatory factor 3, full length, phosphomimetic (IRF3, Homo sapiens, UniProt Q14653, residues 1-427, S386D/S396D/S398D/S402D/T404D/S405D)
Technique: protein-binding microarray
Molecule type: double-stranded DNA, one strand shown
Sample: in vitro
Concentration: 2540 nM top
Notes: 60-bp whole probe
Together with: salmon DNA 0.4 mg/ml
Reference: random background probes
Reading: higher = stronger binding
Shared flanks, not repeated: GCCTAGCAC … GTCTTGATTCGCTTGACGCTGCTG
Construct (chain): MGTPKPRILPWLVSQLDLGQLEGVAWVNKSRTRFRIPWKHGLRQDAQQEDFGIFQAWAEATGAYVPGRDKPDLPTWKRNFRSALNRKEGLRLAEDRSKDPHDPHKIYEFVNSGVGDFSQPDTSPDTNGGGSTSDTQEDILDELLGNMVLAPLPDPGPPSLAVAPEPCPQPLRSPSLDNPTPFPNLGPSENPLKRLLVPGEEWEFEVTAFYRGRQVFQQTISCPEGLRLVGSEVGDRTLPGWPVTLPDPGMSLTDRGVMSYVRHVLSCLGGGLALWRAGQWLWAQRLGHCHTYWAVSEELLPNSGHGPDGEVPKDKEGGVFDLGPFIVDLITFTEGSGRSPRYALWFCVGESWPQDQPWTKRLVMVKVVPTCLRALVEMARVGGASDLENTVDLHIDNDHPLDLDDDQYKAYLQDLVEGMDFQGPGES
| Strand | fitted relative affinity [z-score] |
| --- | --- |
| TTAGGTTTCGGCACTGGGTTAGTGCTA | 2.49 |
| TTTGGTTTCCTTTCCCTTTAGTGCTAG | 11.3 |
| GCCGGACTGGACTTTCGGGACGTGCTA | 0.261 |
| TCACATACTGATTTCCAACTGTGCTAG | 1.26 |
| TTAGAAATCAGTATCGATTAGTGCTAG | 1.34 |
| CTCTGCTTGTGTCTGGGCTTGTGCTAG | -0.634 |
| AACGGACTGGGTCTCGGGACGTGCTAG | -0.701 |
| GATGGTTTCCTTTTCCTGACGTGCTAG | 10.9 |
| GACGGTATCGGTATCGAGACGTGCTAG | 4.26 |
| TTAGGTTTCCTTCTCCTTTAGTGCTAG | 10.1 |
| TTAGATATCAGTATCGATCAGTGCTAG | 1.33 |
| TCATTGATGGCTCTCTGACTGTGCTAG | -0.869 |
| TTAGACCTGAGTTTCGATTAGTGCTAG | 2.24 |
| TCATTCTTGCATCTGGGACTGTGCTAG | 1.58 |
| GACGATATCAGTATAGAGACGTGCTAG | 0.69 |
| TCAAGTGTTTTTCTCCTACTGTGCTAG | 0.299 |
| GAAGCCCTCCCTGTGGGGGGGTGCTAG | -0.291 |
| GACGGACTGGGGACTGGGTACGTGCTA | -0.899 |
| ATAGGTTTCGACTTTCGGTTAGTGCTA | 4.42 |
| GACGATTTCAGTATCGAGATGTGCTAG | 2.5 |
| AGTGCTATACCACTCTTGCTGTGCTAG | 0.125 |
| TTAGAACTGGAGTTTCGATTAGTGCTA | 2 |
| GACGGTATCGGGACCGGGGACGTGCTA | 1.49 |
| TCAAATTCCAAGTTCATACTGTGCTAG | 0.954 |
| GACGGTATGGGGACTGGGGACGTGCTA | -0.398 |

For quick reference, copied from above (study 1):
| Strand | E-score |
| --- | --- |
| TACGGTGA | 0.131 |
| AGCGACGC | 0.296 |
| GCCATACA | -0.0596 |
| GTGATAGA | -0.0531 |
| CGACATAA | 0.0816 |
| AGGGATCC | 0.00991 |
